Published values of several laboratories.
Each line is one published result; not all experiments were run side by side. ± gives the spread as reported.

Compound | assay | system | conditions | quantity | result
NC1CCN(C(=O)Oc2ccc(C3CCCC4(C3)OOC3(O4)C4CC5CC(C4)CC3C5)cc2)CC1 (racemic) |  | male Sprague-Dawley rat, plasma | intravenous, 10 mg/kg | half-life | 10.2 h
CC1(C)C(=O)N(c2ccc(C#N)c(C(F)(F)F)c2)C(=S)N1c1ccc(C(=O)O)c(F)c1 |  | human, male, plasma | oral, 160 mg, single dose, fasting | half-life | 242 ± 66.6 h
CC(C)N1CCCCC1C(=O)NC(Cc1ccc(-c2ccccc2)cc1)B(O)O (stereo not drawn) |  | rat, plasma | oral, 1 mg/kg | half-life | 3.2 h
CC1(C)C(=O)N(c2ccc(C#N)c(C(F)(F)F)c2)C(=S)N1c1ccc(C(N)=O)c(F)c1 |  | male human, plasma | oral, 40 mg, single dose, fasted | half-life | 221 h
O=C1NC2(CC2)COc2ncc(F)cc2[C@H]2COCCN2c2ccn3ncc1c3n2 |  | Sprague-Dawley rat, male, blood | oral, 20 mg/kg/day, 4 weeks, end of recovery, subacute toxicity | monocyte percentage | 1.7 ± 0.5%
CCN(CC)CCOc1ccc(-c2nnn(Cc3ccc(OC)cc3)c2N)cc1 | metabolic stability | monkey, liver microsomes |  | half-life | 0.927 h
CC(C)[C@H]1NC(=O)[C@H](Cc2ccccc2)NC(=O)[C@@H](C(C)C)NC(=O)[C@@H](C)NC(=O)[C@H](CO)NC(=O)[C@@H](Cc2c(-c3ccc(-c4ccc5ccccc5c4)cc3)[nH]c3ccccc23)NC(=O)[C@@H](CO)NC1=O |  | female Sprague-Dawley rat, plasma | intravenous, 1 mg/kg, single dose | half-life | 0.089 h
Cn1nc(NS(C)(=O)=O)c2c(Cl)ccc(-n3c([C@H](Cc4cc(F)cc(F)c4)NC(=O)Cn4nc(C(F)F)c5c4C(F)(F)[C@@H]4C[C@H]54)nc4nc(OCCC(F)(F)F)ccc4c3=O)c21 |  | human, plasma | oral, 1875 mg single dose, powder in bottle, geometric mean | half-life | 55.9 h
CN1CCCCC1C(=O)NC(Cc1ccc(-c2ccccc2)cc1)B(O)O (stereo not drawn) |  | rat, plasma | intravenous, 1 mg/kg | half-life | 5.3 h
C[C@H]1C(=O)O[C@@H]2O[C@@]3(C)CC[C@@H]4[C@@]2(OO3)[C@H]1CC[C@]4(C)O |  | human | dose not given, day 2 | half-life | 1.7 ± 0.5 h
CC[C@H](C)[C@H](NC(=O)[C@H](Cc1ccc(O)cc1)NC(=O)[C@@H](NC(=O)[C@H](CCCNC(=N)N)NC(=O)[C@@H](N)CC(=O)O)C(C)C)C(=O)N[C@@H](Cc1c[nH]cn1)C(=O)N1CCC[C@H]1C(=O)O |  | Beagle dogs, both sexes, plasma | subcutaneous, 10 mg/kg/day, day 27, median | half-life | 0.453 h
CCCCCCCCCCCCCC(=O)N[C@H](CCN)C(=O)N[C@@H]1C(=O)N[C@@H](CCN)C(=O)N[C@@H](CC(C)C)C(=O)N[C@@H](CCN)C(=O)N[C@H](Cc2ccccc2)C(=O)N[C@@H](CC(C)C)C(=O)N[C@@H](CCN)C(=O)N[C@H](CCN)C(=O)N[C@@H](C(C)C)C(=O)N[C@@H](CC(=O)O)C(=O)O[C@@H]1C |  | rat, plasma | intravenous, 5 mg/kg | half-life | 8.28 h

Some of these lines once more:
Compound | assay | system | conditions | quantity | result
CCN(CC)CCOc1ccc(-c2nnn(Cc3ccc(OC)cc3)c2N)cc1 | metabolic stability | monkey, liver microsomes |  | half-life | 0.927 h
C[C@H]1C(=O)O[C@@H]2O[C@@]3(C)CC[C@@H]4[C@@]2(OO3)[C@H]1CC[C@]4(C)O |  | human | dose not given, day 2 | half-life | 1.7 ± 0.5 h
